Measurements from different studies.
Several values in a cell are separate wells, animals, samples, runs or records. ± marks the error that the study gave.
PTPN1: Tyrosine-protein phosphatase non-receptor type 1 (PTPN1, Homo sapiens, UniProt P18031)
HLA class I histocompatibility antigen, A alpha chain allele A*80:01: HLA class I histocompatibility antigen, A alpha chain, allele A*80:01 (Homo sapiens, UniProt P04439)
FURIN: Furin (FURIN, Homo sapiens, UniProt P09958)
MCA2: Metacaspase-2 (MCA2, Trypanosoma brucei brucei, UniProt Q585F3)

By UniProt entry, the sequences of proteins in these tests, tags left out. Residues count along the entry.
UniProt P18031, 1-321 limits assumed: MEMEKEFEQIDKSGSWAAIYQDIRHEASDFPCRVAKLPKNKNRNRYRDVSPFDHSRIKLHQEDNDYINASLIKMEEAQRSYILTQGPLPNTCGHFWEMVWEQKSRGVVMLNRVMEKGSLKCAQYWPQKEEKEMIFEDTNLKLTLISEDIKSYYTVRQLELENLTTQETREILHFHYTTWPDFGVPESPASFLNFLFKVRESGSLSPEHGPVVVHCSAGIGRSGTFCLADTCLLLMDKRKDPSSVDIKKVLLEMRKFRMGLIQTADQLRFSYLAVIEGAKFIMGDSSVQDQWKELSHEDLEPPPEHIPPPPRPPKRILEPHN
UniProt P09958, whole entry, looked up: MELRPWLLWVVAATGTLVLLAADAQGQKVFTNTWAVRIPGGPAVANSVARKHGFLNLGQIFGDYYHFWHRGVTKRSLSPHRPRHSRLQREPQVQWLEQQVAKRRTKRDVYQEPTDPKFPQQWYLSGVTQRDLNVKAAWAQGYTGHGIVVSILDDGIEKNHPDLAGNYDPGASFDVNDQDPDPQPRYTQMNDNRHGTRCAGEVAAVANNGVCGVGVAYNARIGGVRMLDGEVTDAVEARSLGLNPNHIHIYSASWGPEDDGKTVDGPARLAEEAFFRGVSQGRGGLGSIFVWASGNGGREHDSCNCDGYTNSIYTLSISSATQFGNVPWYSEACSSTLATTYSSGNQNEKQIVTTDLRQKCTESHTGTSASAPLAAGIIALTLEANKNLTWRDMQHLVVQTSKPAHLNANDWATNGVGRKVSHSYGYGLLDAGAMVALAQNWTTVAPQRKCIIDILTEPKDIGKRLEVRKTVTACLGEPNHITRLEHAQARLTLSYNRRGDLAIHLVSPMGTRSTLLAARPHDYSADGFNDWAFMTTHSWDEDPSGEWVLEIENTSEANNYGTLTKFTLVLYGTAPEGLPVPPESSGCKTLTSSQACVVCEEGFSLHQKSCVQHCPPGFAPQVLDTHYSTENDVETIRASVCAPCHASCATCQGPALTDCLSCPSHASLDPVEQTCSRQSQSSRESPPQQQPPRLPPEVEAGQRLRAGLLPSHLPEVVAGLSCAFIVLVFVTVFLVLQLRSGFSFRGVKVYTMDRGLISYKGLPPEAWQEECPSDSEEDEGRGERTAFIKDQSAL
UniProt Q585F3, whole entry, looked up: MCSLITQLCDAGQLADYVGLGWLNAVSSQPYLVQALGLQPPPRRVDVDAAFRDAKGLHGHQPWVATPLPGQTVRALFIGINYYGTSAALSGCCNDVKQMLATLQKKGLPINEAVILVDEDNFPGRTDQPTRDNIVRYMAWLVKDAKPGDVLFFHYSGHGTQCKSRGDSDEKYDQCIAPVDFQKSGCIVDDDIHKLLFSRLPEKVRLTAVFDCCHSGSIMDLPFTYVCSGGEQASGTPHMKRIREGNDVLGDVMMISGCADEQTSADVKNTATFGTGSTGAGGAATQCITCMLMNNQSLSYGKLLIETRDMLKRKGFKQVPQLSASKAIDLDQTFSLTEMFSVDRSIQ
UniProt Q99816, whole entry, looked up: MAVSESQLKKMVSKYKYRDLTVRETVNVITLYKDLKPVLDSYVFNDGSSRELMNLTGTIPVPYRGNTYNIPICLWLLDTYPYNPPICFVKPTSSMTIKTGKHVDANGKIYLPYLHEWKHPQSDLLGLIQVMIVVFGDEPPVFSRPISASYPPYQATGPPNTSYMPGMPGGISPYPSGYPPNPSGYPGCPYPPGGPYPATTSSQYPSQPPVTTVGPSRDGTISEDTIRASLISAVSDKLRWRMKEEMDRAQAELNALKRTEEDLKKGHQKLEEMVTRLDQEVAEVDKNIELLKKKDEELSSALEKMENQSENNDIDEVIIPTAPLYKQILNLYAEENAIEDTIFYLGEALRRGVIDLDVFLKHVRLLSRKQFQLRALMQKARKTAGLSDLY
UniProt Q13133, whole entry, looked up: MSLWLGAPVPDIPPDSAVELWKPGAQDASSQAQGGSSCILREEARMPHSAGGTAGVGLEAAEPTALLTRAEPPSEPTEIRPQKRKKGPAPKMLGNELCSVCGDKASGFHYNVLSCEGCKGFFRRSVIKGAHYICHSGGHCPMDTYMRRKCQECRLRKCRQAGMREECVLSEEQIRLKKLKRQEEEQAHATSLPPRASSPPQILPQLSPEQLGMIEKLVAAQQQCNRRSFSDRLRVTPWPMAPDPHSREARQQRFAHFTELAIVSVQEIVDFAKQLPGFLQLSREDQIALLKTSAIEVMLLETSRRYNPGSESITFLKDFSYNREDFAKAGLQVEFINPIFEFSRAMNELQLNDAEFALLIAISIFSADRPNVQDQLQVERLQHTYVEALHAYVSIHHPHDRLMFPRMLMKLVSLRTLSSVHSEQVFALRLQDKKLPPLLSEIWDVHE
UniProt Q9Y5Y6, 615-854 limits assumed: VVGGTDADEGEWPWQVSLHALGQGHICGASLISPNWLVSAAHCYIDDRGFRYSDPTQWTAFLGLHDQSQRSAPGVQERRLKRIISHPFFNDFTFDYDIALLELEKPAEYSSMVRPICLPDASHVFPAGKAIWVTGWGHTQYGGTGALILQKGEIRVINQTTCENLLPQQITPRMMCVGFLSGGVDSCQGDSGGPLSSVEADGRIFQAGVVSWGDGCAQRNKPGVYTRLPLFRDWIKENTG
UniProt Q2FXS9, whole entry: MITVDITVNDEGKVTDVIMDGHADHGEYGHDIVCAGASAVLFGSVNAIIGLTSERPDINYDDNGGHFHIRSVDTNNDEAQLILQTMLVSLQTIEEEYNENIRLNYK

CC(=O)N[C@@H](CCCNC(=N)N)C(=O)N[C@H](C(=O)N[C@@H](CC(C)C)C(=O)N[C@@H](C)C(=O)N[C@@H](C)C(=O)N[C@@H](Cc1ccc(OP(=O)(O)O)cc1)C(=O)N[C@@H](CCC(=O)O)C(=O)N[C@@H](CCC(=O)O)C(=O)N[C@H](C(=O)N[C@@H](Cc1c[nH]cn1)C(N)=O)C(C)C)[C@@H](C)O  kcat/Km (PTPN1; substrate, continuous UV; pH 7.4): 840000 M⁻¹ s⁻¹
CC[C@H](C)[C@H](NC(=O)[C@@H]1CCCN1C(=O)[C@H](Cc1ccc(O)cc1)NC(=O)[C@H](CCCNC(=N)N)NC(=O)[C@H](CC(C)C)NC(=O)[C@@H](NC(=O)[C@@H](N)[C@@H](C)O)[C@@H](C)O)C(=O)NCC(=O)N[C@@H](CCCCN)C(=O)O  z-score (HLA class I histocompatibility antigen, A alpha chain allele A*80:01; direction not given): 0.38
CC(C)C[C@H](NC(=O)[C@H](C)NC(=O)[C@H](Cc1ccc(O)cc1)NC(=O)[C@H](CCCNC(=N)N)NC(=O)[C@H](CCCCN)NC(=O)[C@H](CCCNC(=N)N)NC(=O)[C@H](CCCNC(=N)N)NC(=O)[C@@H](NC(=O)[C@H](CC(N)=O)NC(=O)c1ccccc1N)C(C)C)C(=O)N[C@H](C(=O)N[C@@H](CCC(N)=O)C(=O)NCCNc1ccc([N+](=O)[O-])cc1[N+](=O)[O-])[C@@H](C)O  kcat (FURIN; substrate; pH 7): 2.4 s⁻¹
CC(C)[C@H](NC(=O)[C@H](CCCNC(=N)N)NC(=O)CN)C(=O)N[C@H](C(=O)N[C@@H](CCC(=O)O)C(=O)N1CCC[C@H]1C(=O)N[C@@H](CO)C(=O)N[C@@H](C)C(=O)N1CCC[C@H]1C(=O)N1CCC[C@H]1C(=O)N[C@@H](Cc1c[nH]c2ccccc12)C(=O)N[C@@H](CCC(=O)O)C(=O)NCC(=O)N1CCC[C@H]1C(=O)O)C(C)C  Tm (Tumor susceptibility gene 101 protein, UEV domain (Homo sapiens, UniProt Q99816); thermal stability; 800 µM, 8% DMSO): 66.7 ± 0.3 °C
CC[C@H](C)[C@H]1O[C@]2(C=C[C@@H]1C)C[C@@H]1C[C@@H](C/C=C(\C)[C@@H](O[C@H]3C[C@H](OC)[C@@H](O[C@H]4C[C@H](OC)[C@@H](O)[C@H](C)O4)[C@H](C)O3)[C@@H](C)/C=C/C=C3\CO[C@@H]4[C@H](O)C(C)=C[C@@H](C(=O)O1)[C@]34O)O2  coactivator recruitment efficacy (NR1H3 (Homo sapiens, UniProt Q13133); 0.4 µM): 2.03 ± 1.62%
CC(C)C[C@H](NC(=O)c1ccccc1N)C(=O)N[C@@H](C)C(=O)N[C@@H](CCCNC(=N)N)C(=O)N[C@@H](CO)C(=O)N[C@@H](CO)C(=O)N[C@@H](C)C(=O)N[C@@H](CCC(N)=O)C(=O)NCCNc1ccc([N+](=O)[O-])cc1[N+](=O)[O-]  Km (MCA2; enzyme activity, substrate, FRET hydrolysis; Trypanosoma brucei; pH 7.4): 0.85 µM
N=C(N)c1ccc(C(NC(=O)COCC(=O)NCCCOCCOCCOCCCNC(=O)CCCC[C@@H]2SC[C@@H]3NC(=O)N[C@@H]32)P(=O)(Oc2ccccc2)Oc2ccccc2)cc1 (stereo partly shown)  kinact/KI (ST14 (Homo sapiens, UniProt Q9Y5Y6); irreversible inhibitor): 50 ± 2 M⁻¹ s⁻¹
CSCC[C@H](NC(=O)[C@H](C)NC(=O)[C@@H]1CCCN1C(=O)[C@H](CCC(N)=O)NC(=O)[C@@H]1CCCN1C(=O)[C@H](CC(=O)O)NC(=O)[C@H](Cc1c[nH]c2ccccc12)NC(=O)[C@H](C)NC(=O)[C@@H](N)CCCNC(=N)N)C(=O)O  z-score (HLA class I histocompatibility antigen, A alpha chain allele A*80:01; direction not given): 0.38
CC(=O)N[C@@H](C)C(=O)N[C@H](C(=O)N[C@@H](Cc1ccc(OP(=O)(O)O)cc1)C(=O)N[C@@H](C)C(=O)N[C@@H](CC(=O)O)C(=O)N[C@@H](Cc1c[nH]cn1)C(=O)N[C@@H](Cc1ccc(OP(=O)(O)O)cc1)C(=O)N[C@@H](C)C(=O)N[C@@H](C)C(N)=O)C(C)C  kcat/Km (PTPN1; substrate, continuous UV; pH 7.4): 7.8e+06 M⁻¹ s⁻¹
CC[C@H](C)[C@H](NC(=O)[C@H](CO)NC(=O)[C@H](CCCNC(=N)N)NC(=O)[C@H](C)NC(=O)[C@H](CCCCN)NC(=O)c1ccccc1N)C(=O)N[C@@H](C)C(=O)N[C@@H](CCC(N)=O)C(=O)NCCNc1ccc([N+](=O)[O-])cc1[N+](=O)[O-]  Km (MCA2; enzyme activity, substrate, FRET hydrolysis; Trypanosoma brucei; pH 7.4): 0.12 µM
CC(C)C[C@H](NC(=O)[C@H](C)NC(=O)[C@H](Cc1ccc(O)cc1)NC(=O)[C@H](CCCNC(=N)N)NC(=O)[C@H](CCCNC(=N)N)NC(=O)[C@H](CCCNC(=N)N)NC(=O)[C@H](CCCNC(=N)N)NC(=O)[C@H](CCCNC(=N)N)NC(=O)[C@@H](NC(=O)c1ccccc1N)C(C)C)C(=O)N[C@@H](CO)C(=O)N[C@@H](CCC(N)=O)C(=O)NCCNc1ccc([N+](=O)[O-])cc1[N+](=O)[O-]  kcat (FURIN; substrate; pH 7): 0.84 s⁻¹
CC(C)C[C@H](NC(=O)[C@H](CCCCN)NC(=O)c1ccccc1N)C(=O)N[C@@H](CC(N)=O)C(=O)N[C@@H](CC(C)C)C(=O)N[C@@H](CCC(N)=O)C(=O)N[C@@H](Cc1ccccc1)C(=O)N[C@@H](Cc1ccccc1)C(=O)N[C@@H](C)C(=O)N[C@@H](CO)C(=O)N[C@@H](CCCCN)C(=O)N[C@@H](CCCCNc1ccc([N+](=O)[O-])cc1[N+](=O)[O-])C(=O)O  Km (Ribosomal processing cysteine protease Prp (prp, Staphylococcus aureus, UniProt Q2FXS9); substrate, fluorogenic peptide cleavage; pH 7.0, wild-type enzyme dimer): 0.18 µM and 0.182 µM
CC(C)[C@H](NC(=O)[C@H](Cc1c[nH]cn1)NC(=O)c1ccccc1N)C(=O)N[C@@H](CCCNC(=N)N)C(=O)N[C@@H](CCCCN)C(=O)N[C@@H](CCCNC(=N)N)C(=O)N[C@@H](CCCNC(=N)N)C(=O)N[C@@H](C)C(=O)N[C@@H](CC(=O)O)C(=O)N1CCC[C@H]1C(=O)N[C@@H](CC(=O)O)C(=O)N[C@@H](CCC(N)=O)C(=O)NCCNc1ccc([N+](=O)[O-])cc1[N+](=O)[O-]  kcat/Km (FURIN; substrate): 109000 M⁻¹ s⁻¹
CC(C)C[C@H](NC(=O)[C@@H]1CCCN1C(=O)[C@@H](NC(=O)[C@@H](NC(=O)[C@H](CC(N)=O)NC(=O)[C@@H](NC(=O)[C@@H](N)Cc1ccc(O)cc1)[C@@H](C)O)C(C)C)C(C)C)C(=O)N[C@H](C(=O)N[C@@H](Cc1ccc(O)cc1)C(=O)O)C(C)C  z-score (HLA class I histocompatibility antigen, B alpha chain, allele B*46:01 (Homo sapiens, UniProt P01889); direction not given): -6.47
CC[C@H](C)[C@H](NC(=O)[C@H](Cc1c[nH]cn1)NC(=O)c1ccccc1N)C(=O)N[C@@H](CCCNC(=N)N)C(=O)N[C@@H](CCCNC(=N)N)C(=O)N[C@@H](CCCNC(=N)N)C(=O)N[C@@H](CCCNC(=N)N)C(=O)N[C@@H](CC(=O)O)C(=O)N[C@H](C(=O)N[C@H](C(=O)N[C@H](C(=O)N[C@@H](CCC(N)=O)C(=O)NCCNc1ccc([N+](=O)[O-])cc1[N+](=O)[O-])[C@@H](C)O)C(C)C)C(C)C  kcat (FURIN; substrate; pH 7): 5.5 s⁻¹
CSCC[C@H](NC(=O)CNC(=O)[C@H](CC(C)C)NC(=O)[C@H](Cc1c[nH]c2ccccc12)NC(=O)[C@H](CCCCN)NC(=O)[C@H](CCC(=O)O)NC(=O)[C@@H](NC(=O)[C@@H](NC(=O)[C@H](C)N)C(C)C)C(C)C)C(=O)O  z-score (HLA class I histocompatibility antigen, A alpha chain, allele A*26:03 (Homo sapiens, UniProt P04439); direction not given): -2.36
